Results from different studies.
Each line is one published result; not all experiments were run side by side. Several values in a cell are separate wells, animals, samples, runs or records. ± marks the error that the study gave.
Luciferin 4-monooxygenase: Luciferin 4-monooxygenase (Photinus pyralis, UniProt P08659)
Chain of UniProt P08659 (whole entry, looked up): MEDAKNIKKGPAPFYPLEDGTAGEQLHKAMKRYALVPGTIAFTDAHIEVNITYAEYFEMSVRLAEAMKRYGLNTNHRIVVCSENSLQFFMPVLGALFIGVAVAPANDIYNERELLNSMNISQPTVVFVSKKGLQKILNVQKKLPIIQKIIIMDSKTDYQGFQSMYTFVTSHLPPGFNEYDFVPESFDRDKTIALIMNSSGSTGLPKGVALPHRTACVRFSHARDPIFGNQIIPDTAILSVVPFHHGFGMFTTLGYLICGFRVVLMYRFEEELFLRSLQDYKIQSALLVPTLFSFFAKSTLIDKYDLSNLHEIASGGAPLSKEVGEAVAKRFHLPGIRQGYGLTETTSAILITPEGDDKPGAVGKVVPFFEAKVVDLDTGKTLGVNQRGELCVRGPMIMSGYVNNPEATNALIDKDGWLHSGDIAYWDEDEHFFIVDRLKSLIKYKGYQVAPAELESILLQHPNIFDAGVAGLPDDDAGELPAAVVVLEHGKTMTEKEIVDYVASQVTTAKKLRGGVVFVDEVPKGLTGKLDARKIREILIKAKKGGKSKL
Palmitoyl-protein thioesterase 1: Palmitoyl-protein thioesterase 1 (Homo sapiens, UniProt P50897)
Chain of UniProt P50897 (whole entry, looked up): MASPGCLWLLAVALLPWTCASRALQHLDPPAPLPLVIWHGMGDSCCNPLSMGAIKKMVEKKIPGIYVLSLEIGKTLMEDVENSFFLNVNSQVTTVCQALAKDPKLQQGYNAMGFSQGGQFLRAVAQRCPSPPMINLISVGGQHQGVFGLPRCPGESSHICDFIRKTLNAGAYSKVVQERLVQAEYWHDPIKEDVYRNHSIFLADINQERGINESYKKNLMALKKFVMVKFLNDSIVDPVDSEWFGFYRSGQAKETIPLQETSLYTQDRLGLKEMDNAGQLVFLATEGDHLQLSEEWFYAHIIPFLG
HTR1E: 5-hydroxytryptamine receptor 1E (HTR1E, Homo sapiens, UniProt P28566)
Chain of UniProt P28566 (whole entry, looked up): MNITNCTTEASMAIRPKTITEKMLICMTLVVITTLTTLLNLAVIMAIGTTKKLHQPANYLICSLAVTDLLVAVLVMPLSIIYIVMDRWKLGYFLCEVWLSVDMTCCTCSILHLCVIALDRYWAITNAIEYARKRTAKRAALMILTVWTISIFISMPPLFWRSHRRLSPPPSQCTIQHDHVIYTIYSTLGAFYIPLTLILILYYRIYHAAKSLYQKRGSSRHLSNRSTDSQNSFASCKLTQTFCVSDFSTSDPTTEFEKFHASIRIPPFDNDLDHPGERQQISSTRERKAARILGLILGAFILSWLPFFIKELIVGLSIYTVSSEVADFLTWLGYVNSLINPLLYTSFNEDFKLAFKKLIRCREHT
Adhesin FmlH lectin domain: Adhesin FmlH, lectin domain (Escherichia coli, UniProt Q1RBS0)
Chain of UniProt Q8IWT6 (whole entry, unmodified, looked up): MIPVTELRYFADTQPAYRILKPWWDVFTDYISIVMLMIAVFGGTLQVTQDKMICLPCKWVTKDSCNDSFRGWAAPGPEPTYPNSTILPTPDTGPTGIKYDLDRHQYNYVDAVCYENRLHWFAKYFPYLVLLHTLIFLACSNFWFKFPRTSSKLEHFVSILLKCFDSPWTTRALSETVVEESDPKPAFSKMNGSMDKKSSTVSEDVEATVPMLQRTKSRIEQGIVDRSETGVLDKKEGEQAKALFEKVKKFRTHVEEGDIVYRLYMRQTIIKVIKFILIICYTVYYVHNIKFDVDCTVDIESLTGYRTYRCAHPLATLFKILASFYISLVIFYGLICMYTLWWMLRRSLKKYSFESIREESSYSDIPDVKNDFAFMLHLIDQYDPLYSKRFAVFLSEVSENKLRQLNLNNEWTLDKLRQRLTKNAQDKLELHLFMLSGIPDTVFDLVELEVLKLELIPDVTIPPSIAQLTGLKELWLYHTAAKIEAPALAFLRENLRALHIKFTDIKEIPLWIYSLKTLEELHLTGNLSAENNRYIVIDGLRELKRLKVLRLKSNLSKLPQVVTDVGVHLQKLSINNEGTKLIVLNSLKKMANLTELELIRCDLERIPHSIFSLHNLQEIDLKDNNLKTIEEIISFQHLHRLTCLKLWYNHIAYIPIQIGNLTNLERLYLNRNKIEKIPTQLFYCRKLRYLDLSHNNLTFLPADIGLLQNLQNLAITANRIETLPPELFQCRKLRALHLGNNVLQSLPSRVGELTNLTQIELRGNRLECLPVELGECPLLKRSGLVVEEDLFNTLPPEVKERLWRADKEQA
Chain of UniProt Q16853 (whole entry, looked up): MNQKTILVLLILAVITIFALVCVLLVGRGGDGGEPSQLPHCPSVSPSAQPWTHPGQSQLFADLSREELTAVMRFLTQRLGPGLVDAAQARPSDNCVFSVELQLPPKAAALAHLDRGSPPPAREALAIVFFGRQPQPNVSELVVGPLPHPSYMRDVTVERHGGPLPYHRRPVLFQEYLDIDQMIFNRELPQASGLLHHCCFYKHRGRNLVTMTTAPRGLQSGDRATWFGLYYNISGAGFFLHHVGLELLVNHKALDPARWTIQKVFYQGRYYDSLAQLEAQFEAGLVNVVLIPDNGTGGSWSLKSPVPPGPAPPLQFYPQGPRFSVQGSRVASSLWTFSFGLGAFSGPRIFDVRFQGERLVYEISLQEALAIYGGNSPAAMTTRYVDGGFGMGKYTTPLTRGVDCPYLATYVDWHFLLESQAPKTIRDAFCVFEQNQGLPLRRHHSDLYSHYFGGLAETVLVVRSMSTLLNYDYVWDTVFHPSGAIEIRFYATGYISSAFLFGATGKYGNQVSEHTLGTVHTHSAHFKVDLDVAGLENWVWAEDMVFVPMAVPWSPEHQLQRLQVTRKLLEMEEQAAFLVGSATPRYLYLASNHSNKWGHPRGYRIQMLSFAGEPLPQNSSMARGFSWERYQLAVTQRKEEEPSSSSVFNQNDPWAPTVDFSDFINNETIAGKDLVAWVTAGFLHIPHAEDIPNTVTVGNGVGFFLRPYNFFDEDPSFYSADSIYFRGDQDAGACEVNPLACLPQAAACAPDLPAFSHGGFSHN
Chain of UniProt P06396 (whole entry, unmodified, looked up): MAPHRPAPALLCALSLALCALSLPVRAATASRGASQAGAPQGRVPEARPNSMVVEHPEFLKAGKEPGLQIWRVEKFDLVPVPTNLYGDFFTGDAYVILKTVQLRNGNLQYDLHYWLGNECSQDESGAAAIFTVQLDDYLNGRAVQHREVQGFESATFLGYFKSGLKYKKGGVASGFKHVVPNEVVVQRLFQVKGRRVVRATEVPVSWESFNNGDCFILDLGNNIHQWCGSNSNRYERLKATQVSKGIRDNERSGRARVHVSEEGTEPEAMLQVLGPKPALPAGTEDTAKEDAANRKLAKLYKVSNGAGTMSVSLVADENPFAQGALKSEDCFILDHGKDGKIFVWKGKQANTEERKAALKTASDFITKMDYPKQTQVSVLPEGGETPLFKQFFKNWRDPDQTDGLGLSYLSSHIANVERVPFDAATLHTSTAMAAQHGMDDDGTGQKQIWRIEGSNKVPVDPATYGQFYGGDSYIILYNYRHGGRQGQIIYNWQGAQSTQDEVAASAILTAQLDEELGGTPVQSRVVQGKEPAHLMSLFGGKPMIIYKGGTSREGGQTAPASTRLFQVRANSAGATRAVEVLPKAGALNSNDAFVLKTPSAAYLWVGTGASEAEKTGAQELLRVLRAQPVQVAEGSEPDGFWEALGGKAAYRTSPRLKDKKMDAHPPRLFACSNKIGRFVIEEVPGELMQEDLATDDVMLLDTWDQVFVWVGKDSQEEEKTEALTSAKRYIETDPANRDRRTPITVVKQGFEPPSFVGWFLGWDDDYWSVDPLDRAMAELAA
Chain of UniProt P16257 (whole entry, looked up): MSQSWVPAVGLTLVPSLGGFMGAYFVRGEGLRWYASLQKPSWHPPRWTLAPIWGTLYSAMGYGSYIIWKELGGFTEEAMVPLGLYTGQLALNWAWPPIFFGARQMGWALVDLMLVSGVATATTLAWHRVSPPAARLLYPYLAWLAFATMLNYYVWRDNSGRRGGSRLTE
Chain of UniProt P04406 (whole entry, looked up): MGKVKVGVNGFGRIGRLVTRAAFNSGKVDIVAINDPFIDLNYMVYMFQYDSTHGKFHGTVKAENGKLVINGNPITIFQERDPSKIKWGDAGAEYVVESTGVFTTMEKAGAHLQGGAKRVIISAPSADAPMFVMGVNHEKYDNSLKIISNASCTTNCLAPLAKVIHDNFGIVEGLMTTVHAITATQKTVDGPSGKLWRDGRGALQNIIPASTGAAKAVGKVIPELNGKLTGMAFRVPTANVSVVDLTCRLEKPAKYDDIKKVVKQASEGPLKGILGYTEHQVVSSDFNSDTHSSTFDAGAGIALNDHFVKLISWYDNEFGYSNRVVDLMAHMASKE
Chain of UniProt Q13258 (whole entry, looked up): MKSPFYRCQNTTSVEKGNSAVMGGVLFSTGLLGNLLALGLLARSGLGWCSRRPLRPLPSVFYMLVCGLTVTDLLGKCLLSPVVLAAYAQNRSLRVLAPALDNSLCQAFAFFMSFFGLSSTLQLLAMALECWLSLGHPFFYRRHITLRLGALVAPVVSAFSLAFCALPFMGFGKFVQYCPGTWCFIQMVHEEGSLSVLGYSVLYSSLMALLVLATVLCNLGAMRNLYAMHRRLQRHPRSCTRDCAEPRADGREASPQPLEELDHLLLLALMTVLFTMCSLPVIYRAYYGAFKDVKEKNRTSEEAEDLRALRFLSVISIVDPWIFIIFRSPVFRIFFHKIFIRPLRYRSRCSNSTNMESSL
Chain of UniProt Q8N884 (whole entry, looked up): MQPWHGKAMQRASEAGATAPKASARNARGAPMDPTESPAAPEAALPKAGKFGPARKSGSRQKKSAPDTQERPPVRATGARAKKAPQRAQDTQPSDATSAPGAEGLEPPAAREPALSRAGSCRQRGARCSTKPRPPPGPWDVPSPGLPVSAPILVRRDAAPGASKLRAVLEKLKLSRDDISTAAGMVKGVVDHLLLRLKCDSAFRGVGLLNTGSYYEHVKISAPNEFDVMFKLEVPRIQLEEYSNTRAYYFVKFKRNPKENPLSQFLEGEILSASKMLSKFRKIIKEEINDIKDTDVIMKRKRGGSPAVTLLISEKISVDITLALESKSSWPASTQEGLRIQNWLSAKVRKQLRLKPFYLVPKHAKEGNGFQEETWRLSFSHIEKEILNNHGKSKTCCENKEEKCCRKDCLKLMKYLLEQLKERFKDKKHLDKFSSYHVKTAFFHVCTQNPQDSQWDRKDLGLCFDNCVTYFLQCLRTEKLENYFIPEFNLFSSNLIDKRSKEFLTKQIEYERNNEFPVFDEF

COc1cc(-c2cc(C(C)=O)n3ccccc23)cc(OC)c1Cn1ccnc1
inhibition (Peregrin (BRPF1, Homo sapiens, UniProt P55201); 1 µM): 3.62%

Cc1ccc(C(=O)Nc2ccc3ccccc3c2)o1
inhibition (Scn2a (Rattus norvegicus, UniProt P04775); ion current, whole-cell patch-clamp; 10 µM, rNav1.2): 4.31%

CSc1nccc(-c2cccc(-c3cc[nH]n3)c2)n1
inhibition (Luciferin 4-monooxygenase; luciferase luminescence, inhibitor; cell-free; 50 µM, counter-screen): 68.5%

CNc1nc(C#Cc2ccc(Cl)s2)nc2c1ncn2[C@H]1[C@H](O)[C@H](O)[C@]2(C(=O)OC)C[C@H]12
inhibition (SLC6A2 (Homo sapiens, UniProt P23975); noradrenaline uptake; HEK293; 10 µM, 10 min, added: 20 nM [3H]noradrenaline): 19 ± 21%

CO[C@H]1/C=C/O[C@@]2(C)Oc3c(C)c(O)c4c(O)c(c(/C=N/N5CCN(C6CCCC6)CC5)c(O)c4c3C2=O)NC(=O)/C(C)=C\C=C\[C@H](C)[C@H](O)[C@@H](C)[C@@H](O)[C@@H](C)[C@H](OC(C)=O)[C@@H]1C
inhibition (Palmitoyl-protein thioesterase 1; Spectrum Collection screen; concentration not given, added: substrate 20 µM): 76.2%

COc1ccccc1N1CCN(CCCCN2CCc3ccccc3C2=O)CC1
inhibition (HTR1E; radioligand binding; concentration not given, added: [3H]5-HT): -14.7%

CC(C(=O)O)c1cccc(Oc2ccccc2)c1 (stereo not drawn)
inhibition (PTGS1 (Ovis aries, UniProt P05979); biochemical; 100 µM): no inhibition

FC(F)(F)C1=C/C(=C\CCCCCCOCc2ccccc2)c2cc3c(cc21)OCO3
inhibition (P4HB (Homo sapiens, UniProt P07237); enzyme activity, inhibitor, insulin reduction; concentration not given, biochemical): no effect

O=C(CN1CCO[C@H](COc2cccc(Cl)c2)C1)N1CCc2ccccc21
inhibition (HTR1E; radioligand binding; concentration not given, added: [3H]5-HT): -16.3%

CCOC(=O)[N-]c1cn(N2CCOCC2)n[o+]1
inhibition (Palmitoyl-protein thioesterase 1; Spectrum Collection screen; concentration not given, added: substrate 20 µM): 69.3%

CN(C(=O)n1cnc(-c2ccc[n+]([O-])c2)c1)C1CCCCC1
inhibition (glutamate decarboxylase; enzyme activity; concentration not given): 11.1%

Cc1nn(-c2nc3ccccc3s2)c(O)c1C(c1ccccc1C(=O)O)c1c(C)nn(-c2nc3ccccc3s2)c1O
inhibition (Cyclic GMP-AMP synthase, catalytic domain; with DNA (CGAS, Homo sapiens, UniProt Q8N884); cGAS phase separation, inhibitor; 2.5 µM): 91.7%

O=C(CN1CCO[C@H](COc2ccccc2)C1)N1CCc2ccccc21
inhibition (HTR1E; radioligand binding; concentration not given, added: [3H]5-HT): -4.9%

CC(=O)[C@]1(O)Cc2c(O)c3c(c(O)c2[C@@H](O[C@H]2C[C@H](N)[C@H](O)[C@H](C)O2)C1)C(=O)c1ccccc1C3=O
inhibition (Luciferin 4-monooxygenase; luciferase luminescence, inhibitor; cell-free; 50 µM, counter-screen): 60%

CC(=O)Nc1ncc([N+](=O)[O-])s1
inhibition (Palmitoyl-protein thioesterase 1; Spectrum Collection screen; concentration not given, added: substrate 20 µM): 65.1%

Cn1cc([C@@H]2C[C@H]3CN(Cc4cccc(Cl)c4)C(=O)[C@]34CCCN24)cn1
inhibition (Luciferin 4-monooxygenase; luciferase luminescence, inhibitor; cell-free; 50 µM, counter-screen): -12.1%

O=c1ccc2nc3ccc(O[C@@H]4O[C@H](CO)[C@H](O)[C@H](O)[C@H]4O)cc3oc-2c1
inhibition (Adhesin FmlH lectin domain; binding to desialylated mucin, ELISA competition; UPEC UTI89; 10 µM, added: desialylated bovine submaxillary mucin): 24 ± 3.2%

Cc1ccnc(OC[C@H]2CN(CC(=O)N3CCc4ccccc43)CCO2)c1
inhibition (HTR1E; radioligand binding; concentration not given, added: [3H]5-HT): -8.9%

C[C@H]1[C@H](OC(=O)CCC(=O)O)O[C@@H]2O[C@@]3(C)CC[C@H]4[C@H](C)CC[C@@H]1[C@@]24OO3
inhibition (Non-structural polyprotein pORF1, RNA-dependent RNA polymerase (Hepatitis E virus genotype 1, UniProt P33424); polymerase activity, colorimetric; 78 µM): 40.5%

Cc1cc(NS(=O)(=O)c2ccc(N=NN(O)c3ccccc3)cc2)no1
inhibition (α-glucosidase, rat intestine; enzyme activity; 240 µg/mL, added: 4-nitrophenyl α-D-glucopyranoside): 47.5 ± 1.54%

CCN1/C(=C/C(C)=O)Sc2ccc(F)cc21
inhibition (Cacna1b (Rattus norvegicus, UniProt Q02294); 10 µM): 0.62%

Cc1ccc(OC[C@@H]2CN(CCN3CCc4ccccc43)CCO2)cn1
inhibition (DRD1 (Homo sapiens, UniProt P21728); radioligand binding; concentration not given, added: [3H]SCH23390): 44.1%

CCc1oc2ccccc2c1C(=O)c1cc(Br)c(O)c(Br)c1
inhibition (SLC22A12 (Homo sapiens, UniProt Q96S37, S35A); urate uptake; HEK293T; 0.5 µM, 10 min, 37 °C, added: 200 µM [14C]urate): 55.4% and 67.7% and 59% and 63.1%

CCN1CCCC1CNC(=O)CCC1CCN(C(=O)CSc2ncccn2)CC1 (stereo not drawn)
inhibition (Luciferin 4-monooxygenase; luciferase luminescence, inhibitor; cell-free; 50 µM, counter-screen): 5.08%

CC/C(=N\NC(=O)NCc1cccc(O)c1)c1ccc(O)c(C)c1O
inhibition (MAP3K2 (Homo sapiens, UniProt Q9Y2U5); kinase activity; 0.1 µM): -2.8%

Cc1noc(NS(=O)(=O)c2ccc(N=NN(O)c3ccccc3)cc2)c1C
inhibition (α-glucosidase, rat intestine; enzyme activity; 20 µg/mL, added: 4-nitrophenyl α-D-glucopyranoside): 5 ± 0.72%

OC[C@H]1O[C@@H](Oc2ccccc2)[C@H](O)[C@@H](O)[C@H]1O
inhibition (Adhesin FmlH lectin domain; binding to desialylated mucin, ELISA competition; UPEC UTI89; 10 µM, added: desialylated bovine submaxillary mucin): 15.5 ± 4.2%

CC(=O)CC(c1ccccc1)c1c(O)c2ccccc2oc1=O (stereo not drawn)
inhibition (Luciferin 4-monooxygenase; luciferase luminescence, inhibitor; cell-free; 50 µM, counter-screen): 11%

Cc1ccc(N(O)N=Nc2ccc(S(=O)(=O)Nc3onc(C)c3C)cc2)cc1
inhibition (α-glucosidase, rat intestine; enzyme activity; 60 µg/mL, added: 4-nitrophenyl α-D-glucopyranoside): 10 ± 0.54%

O=C1c2ccccc2CCN1CCCCN1CCN(c2ccccn2)CC1
inhibition (HTR1E; radioligand binding; concentration not given, added: [3H]5-HT): -6.5%

Cc1cccc(N(O)N=Nc2ccc(S(=O)(=O)Nc3cc(C)on3)cc2)c1
inhibition (α-glucosidase, rat intestine; enzyme activity; 60 µg/mL, added: 4-nitrophenyl α-D-glucopyranoside): 12.5 ± 2.3%

Cn1nnc2c(C(N)=O)ncn2c1=O
inhibition (Palmitoyl-protein thioesterase 1; Spectrum Collection screen; concentration not given, added: substrate 20 µM): 77.3%

C[C@@H](O)[C@H](NC(=O)[C@H](CS)NC(=O)[C@@H](N)CO)C(=O)O
inhibition (GAPDH (Homo sapiens, UniProt P04406); protein aggregation, turbidity; 30 µM): 0%

Cc1cccc(N(O)N=Nc2ccc(S(=O)(=O)Nc3nccs3)cc2)c1
inhibition (α-glucosidase, rat intestine; enzyme activity; 240 µg/mL, added: 4-nitrophenyl α-D-glucopyranoside): 35 ± 0.013%

[2H]c1cc(C)c(NC(=O)c2cnc(Nc3cc(N4CCCCC4)nc(C)n3)s2)c(Cl)c1
inhibition (FRK (Homo sapiens, UniProt P42685); 0.01 µM): > 90%

CCN(O)N=Nc1ccc(S(=O)(=O)Nc2onc(C)c2C)cc1
inhibition (α-glucosidase, rat intestine; enzyme activity; 60 µg/mL, added: 4-nitrophenyl α-D-glucopyranoside): 15 ± 0.013%

NC/C(=C\F)COc1cccc(Cn2c(=S)[nH]c(=O)c3[nH]cnc32)c1
inhibition (AOC3 (Homo sapiens, UniProt Q16853); H2O2 production, Amplex Red; 30 µM, recombinant human enzyme): 99.8%

CCN(O)N=Nc1ccc(S(=O)(=O)Nc2cc(C)on2)cc1
inhibition (α-glucosidase, rat intestine; enzyme activity; 120 µg/mL, added: 4-nitrophenyl α-D-glucopyranoside): 42.5 ± 0.04%

CN1CCN(c2cc(-c3ccncc3)c(-c3ccc4ccccc4c3)nn2)CC1
inhibition (PTGDR (Homo sapiens, UniProt Q13258); antagonist, FLIPR; 10 µM): 3.9%

Nc1ncnc2[nH]cnc12
inhibition (Gelsolin, N184K peptide (GSN, Homo sapiens, UniProt P06396); amyloid aggregation, ThT fluorescence; 100 µM, 12 h, 37 °C, cpd to peptide 1:1 molar): 77%

Clc1cncc(OC[C@@H]2CN(CCN3CCc4ccccc43)CCO2)c1
inhibition (HTR1E; radioligand binding; concentration not given, added: [3H]5-HT): -8.6%

COc1cc(C(=O)NS(=O)(=O)c2ccccc2C)ccc1Cc1cn(C)c2ccc(NC(=O)OC3CCCC3)cc12
inhibition (LRRC8A/LRRC8C (Homo sapiens, UniProt Q8IWT6+Q8TDW0, Y124F/Y126F); ion current, whole-cell patch clamp; HCT LRRC8-/- cells; 1 µM, +100 mV, Y124F/Y126F heteromers): 6.42% and 2.37% and -3.09% and -6.6% and -2.51%

O=S(=O)(O)c1cc(N=C=S)ccc1/C=C/c1ccc(N=C=S)cc1S(=O)(=O)O
inhibition (Luciferin 4-monooxygenase; luciferase luminescence, inhibitor; cell-free; 50 µM, counter-screen): 43.3%

O=c1c(O)c(-c2ccc(O)cc2)oc2ccccc12
inhibition (Palmitoyl-protein thioesterase 1; Spectrum Collection screen; concentration not given, added: substrate 20 µM): 64.2%

Cc1ccc(N(O)N=Nc2ccc(S(=O)(=O)Nc3cc(C)on3)cc2)cc1
inhibition (α-glucosidase, rat intestine; enzyme activity; 240 µg/mL, added: 4-nitrophenyl α-D-glucopyranoside): 47.5 ± 0.09%

Cc1ccn(CCn2ncc(N(C)C)cc2=O)n1
inhibition (Luciferin 4-monooxygenase; luciferase luminescence, inhibitor; cell-free; 50 µM, counter-screen): 20.5%

O=C(Nc1cccc2c(=O)cc(-c3nnn[nH]3)oc12)c1ccc(OCCCCc2ccccc2)cc1
inhibition (Volume-regulated anion channel subunit LRRC8C, part LRRC8A IL1 chimera (LRRC8C, Homo sapiens, UniProt Q8TDW0, L136K); ion current, inhibitor, whole-cell patch clamp; HCT LRRC8-/- cells; 0.3 µM, +100 mV): 72.2% and 61.3% and 75.1% and 73.5% and 33.7%

CC[C@@H]1[C@H](F)C(=O)N[C@@H]1COc1nccc2cc(C(N)=O)c(OC)cc12
inhibition (CLK2 (Homo sapiens, UniProt P49760); ATP-site probe binding, ActivX profiling; THP-1 cell lysate; 0.01 mM, Lys2 site): 26.8%

O=C(NO)c1ccc(CN2CCCCc3ccccc32)c(F)c1
inhibition (Tspo (Rattus norvegicus, UniProt P16257); radioligand binding, PDSP radioligand binding; 10 µM): -30.8%

c1cncc(OC[C@H]2CN(CCN3CCc4ccccc43)CCO2)c1
inhibition (HTR1E; radioligand binding; concentration not given, added: [3H]5-HT): -9%

COc1ccc(F)cc1C(=O)NCc1ccc(-c2nn([C@@H](C)C(F)(F)F)c(N)c2C(N)=O)cc1
inhibition (OXSR1 (Homo sapiens, UniProt O95747); target engagement, competitive chemoproteomics; human PBMCs; 0.01 µM): 28.2%

Some of these lines once more:
CC(=O)Nc1ncc([N+](=O)[O-])s1
inhibition (Palmitoyl-protein thioesterase 1; Spectrum Collection screen; concentration not given, added: substrate 20 µM): 65.1%

Cc1ccn(CCn2ncc(N(C)C)cc2=O)n1
inhibition (Luciferin 4-monooxygenase; luciferase luminescence, inhibitor; cell-free; 50 µM, counter-screen): 20.5%

Clc1cncc(OC[C@@H]2CN(CCN3CCc4ccccc43)CCO2)c1
inhibition (HTR1E; radioligand binding; concentration not given, added: [3H]5-HT): -8.6%

Cc1cccc(N(O)N=Nc2ccc(S(=O)(=O)Nc3cc(C)on3)cc2)c1
inhibition (α-glucosidase, rat intestine; enzyme activity; 60 µg/mL, added: 4-nitrophenyl α-D-glucopyranoside): 12.5 ± 2.3%

c1cncc(OC[C@H]2CN(CCN3CCc4ccccc43)CCO2)c1
inhibition (HTR1E; radioligand binding; concentration not given, added: [3H]5-HT): -9%
